Literature values, collected from citations in different studies.
Each line is one published result; not all experiments were run side by side. ± marks the error that the study gave. Ends that are not written are not given here.
Sequence of UniProt Q01959 (whole entry, looked up): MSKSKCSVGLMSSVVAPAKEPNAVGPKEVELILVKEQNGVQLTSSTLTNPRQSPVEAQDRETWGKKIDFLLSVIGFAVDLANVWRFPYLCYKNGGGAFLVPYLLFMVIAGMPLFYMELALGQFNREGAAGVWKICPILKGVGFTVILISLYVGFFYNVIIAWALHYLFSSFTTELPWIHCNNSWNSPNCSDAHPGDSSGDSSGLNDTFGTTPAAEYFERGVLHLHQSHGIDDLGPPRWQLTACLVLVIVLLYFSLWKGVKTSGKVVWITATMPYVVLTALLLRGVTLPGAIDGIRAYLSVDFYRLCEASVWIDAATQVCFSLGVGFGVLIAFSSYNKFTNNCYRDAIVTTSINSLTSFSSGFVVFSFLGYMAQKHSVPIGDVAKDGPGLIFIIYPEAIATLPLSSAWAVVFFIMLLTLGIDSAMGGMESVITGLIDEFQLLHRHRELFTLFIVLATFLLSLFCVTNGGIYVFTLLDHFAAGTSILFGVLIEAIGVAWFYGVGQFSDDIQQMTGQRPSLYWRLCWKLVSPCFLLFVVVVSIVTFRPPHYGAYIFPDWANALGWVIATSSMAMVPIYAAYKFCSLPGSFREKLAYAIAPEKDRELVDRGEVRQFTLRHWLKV
Sequence of UniProt P35372 (whole entry, looked up): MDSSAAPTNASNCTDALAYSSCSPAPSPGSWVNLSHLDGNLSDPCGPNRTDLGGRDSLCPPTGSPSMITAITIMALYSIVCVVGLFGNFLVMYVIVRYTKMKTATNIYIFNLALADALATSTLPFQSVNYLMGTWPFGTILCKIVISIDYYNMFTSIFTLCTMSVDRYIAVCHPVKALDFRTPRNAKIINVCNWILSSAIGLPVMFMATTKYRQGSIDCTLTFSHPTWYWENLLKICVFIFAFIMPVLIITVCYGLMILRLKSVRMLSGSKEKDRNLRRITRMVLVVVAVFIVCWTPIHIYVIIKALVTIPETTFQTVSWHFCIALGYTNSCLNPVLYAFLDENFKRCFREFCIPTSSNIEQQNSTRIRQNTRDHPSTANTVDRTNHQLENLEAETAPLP
Sequence of UniProt Q01827 (whole entry, looked up): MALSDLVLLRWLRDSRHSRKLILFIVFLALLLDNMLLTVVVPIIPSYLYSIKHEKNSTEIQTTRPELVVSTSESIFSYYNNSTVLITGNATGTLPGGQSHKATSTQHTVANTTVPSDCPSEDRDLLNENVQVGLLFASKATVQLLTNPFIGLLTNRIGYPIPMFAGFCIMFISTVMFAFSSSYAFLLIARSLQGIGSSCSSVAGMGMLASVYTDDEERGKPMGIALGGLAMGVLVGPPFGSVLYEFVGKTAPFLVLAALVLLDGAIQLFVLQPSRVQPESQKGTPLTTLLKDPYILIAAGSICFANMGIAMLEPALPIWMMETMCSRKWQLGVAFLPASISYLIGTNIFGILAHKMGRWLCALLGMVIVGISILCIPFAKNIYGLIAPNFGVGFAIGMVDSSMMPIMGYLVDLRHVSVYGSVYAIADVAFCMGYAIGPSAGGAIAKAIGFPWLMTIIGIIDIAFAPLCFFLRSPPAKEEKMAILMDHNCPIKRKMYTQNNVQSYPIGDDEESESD

C=CCN(CC=C)CCc1c[nH]c2ccccc12  Ki (Mu-type opioid receptor (OPRM1, Homo sapiens, UniProt P35372); binding; with: [3H]DAMGO): > 10 µM
COCCC/C=C/C(C)=C/[C@@H]1Cc2nc(cs2)[C@@H](C)C[C@@H](NC(=O)OC(C)(C)C)CC(=O)O[C@@H](C)C/C(C)=C/C=C\C(=O)O1  IC50 (Jurkat T cells; IL-2 reporter gene): > 1 µM
CC1(C)CCC(c2ccc(Cl)cc2)=C(CN2CCN(c3ccc(C(=O)NS(=O)(=O)c4ccc(N[C@H](CCN5CCOCC5)CSc5ccccc5)c(S(=O)(=O)C(F)(F)F)c4)cc3)CC2)C1  IC50 (MDA-MB-231; cell growth): 2 µM
O=c1c2nc(Br)n([C@@H]3O[C@@H]4CO[P@@](O)(=S)O[C@H]4[C@H]3O)c2nc2[nH]c(-c3ccccc3)cn12  Km or Ki (PDE4D; cyclic nucleotide hydrolysis, substrate or inhibitor, isothermal titration calorimetry): 8.1 µM
C/C1=C\[C@H](C)C[C@H](C)OC(=O)C[C@H](c2ccc(O)cc2)NC(=O)[C@@H](Cc2c(Br)[nH]c3ccccc23)N(C)C(=O)[C@H](C)NC(=O)[C@@H](C)C1  IC50 (MCF7; cytotoxicity): 0.019 µM
Aristolactam IIIa  IC50 (human neutrophils; superoxide production; with: fMLF): 0.43 µM
N.N.[Cl][Pt][Cl]  IC50 (human PBMC; MTT; 24 h, dissolved in water): 500 ± 18 µM
Nc1nc(N)nc(Nc2ccc([As]3SCC(CO)S3)cc2)n1 (centres unmarked)  IC50 (L6 rat myoblasts; cell growth): 7.78 µM
CC[C@H](C)[C@@H]1NC(=O)[C@H](Cc2c[nH]c3ccccc23)NC(=O)CNC(=O)[C@H](CO)NC(=O)[C@H](C(C)C)NC(=O)[C@H](CC(N)=O)NC(=O)[C@H](Cc2c[nH]c3ccccc23)NC(=O)[C@H](Cc2ccc(O)cc2)NC1=O  IC50 (HEK-293T; virus-like particle budding, inhibitor, GAG-mediated VLP budding): 7 µM
C=C1C[C@H](C)C(=O)N[C@@H](C)C(=O)N(C)[C@H](Cc2c(Br)[nH]c3ccccc23)C(=O)N[C@@H](c2ccc(O)cc2)CC(=O)O[C@@H](C)C[C@@H](C)C1=O  IC50 (MCF7; cytotoxicity): 3.4 µM
CN1C/C(=C\c2ccc(Cl)cc2Cl)C/C(=C/c2ccc(Cl)cc2Cl)C1  Ki (Synaptic vesicular amine transporter (Slc18a2, Rattus norvegicus, UniProt Q01827); binding; with: dihydrotetrabenazine site): 41.3 µM
N.N.[Cl][Pt][Cl]  IC50 (esophageal cancer cell lines, high GLUT1 expression; 17 cell lines, mean value): 28.3 ± 8.2 µM
INLKALAALAKKIL-OH (mastoparan free acid)  IC50 (MDA-MB-231; cell growth; peptide): 251 µM
O=C(O)CCCO  onset of effects (item: psychomotor skills, drug strength; human; 8 g/70 kg, high doses): ≥ 30 min
C=CCN(CC=C)CCc1c[nH]c2ccc(Br)cc12  Ki (Sodium-dependent dopamine transporter (SLC6A3, Homo sapiens, UniProt Q01959)): 2.46 µM
CCC[C@@H](C(=O)c1ccc2c(c1)OCO2)N1CCCC1  IC50 (dopamine transporter, rat; dopamine uptake, inhibitor; brain synaptosomes): 0.0021 ± 0.0002 µM
C[C@H]1O[C@@H](O[C@H]2[C@@H](O)C[C@H](O[C@H]3[C@@H](O)C[C@H](O[C@H]4CC[C@@]5(C)[C@H](CC[C@@H]6[C@@H]5C[C@@H](O)[C@]5(C)[C@@H](C7=CC(=O)OC7)CC[C@]65O)C4)O[C@@H]3C)O[C@@H]2C)C[C@H](O)[C@@H]1O  IC50 (HT-29; cell viability; 72 h): 0.28 ± 0.03 µM
O=C(OC[C@H]1O[C@@H](OC(=O)c2cc(O)c(O)c(O)c2)[C@H](OC(=O)c2cc(O)c(O)c(O)c2)[C@@H](OC(=O)c2cc(O)c(O)c(O)c2)[C@@H]1OC(=O)c1cc(O)c(O)c(O)c1)c1cc(O)c(O)c(O)c1  IC50 (prostate cancer cell lines; BrdU incorporation; 2 h): ~6 µM
COC(=O)C(C)CCC[C@]1(C)CC[C@]2(O1)C(=O)C(C)=C(C)[C@@]2(O)C(C)=O (some centres unmarked)  IC50 (neutrophils; superoxide production; with: fMLF): 4.1 µM
COC1C2OP(O)(=S)OCC2OC1n1c(Sc2ccc(Cl)cc2)nc2c(N)ncnc21 (centres unmarked)  Km or Ki (PDE6; cyclic nucleotide hydrolysis, substrate or inhibitor, isothermal titration calorimetry): 1.05 µM
COc1ccc(C[C@H]2COC(=O)[C@@H]2Cc2ccc(O)c(O)c2)cc1OC  IC50 (human neutrophils; calcium flux, inhibitor; with: fMLF): < 10 µM
CO[C@H]1C[C@H](O[C@H]2CC[C@@]3(C)[C@@H](C2)C[C@@H]2O[C@]24[C@@H]3[C@H](O)C(=O)[C@]2(C)[C@@H](C3=CC(=O)OC3)CC[C@]42O)O[C@@H](C)[C@@H]1O  IC50 (HT-29; cell viability; 72 h): 0.22 ± 0.23 µM
C=CCc1ccc(O)c(-c2cc(O)ccc2O)c1  IC50 (neutrophils; superoxide production; with: fMLF): 1.6 µM
N.N.[Cl][Pt][Cl]  IC50 (colorectal cancer cell lines; cell growth; mean of 27 lines): 13.2 µM
C=C1[C@H]2[C@@H]([C@@H](C(C)C)C[C@@H]1O)[C@H]1O[C@@H]2C[C@](C)(O)[C@@H](OC(=O)Cc2ccccc2)CC[C@@]1(C)OC(=O)CCC  IC50 (neutrophils; superoxide production; with: fMLF): 3.1 µM
CN(Cc1cnc2nc(N)nc(N)c2n1)c1ccc(C(=O)N[C@@H](CCC(=O)O)C(=O)O)cc1  IC50 (KB; cell growth; 96 h, with: folic acid 200 nM): 0.02 µM

Excerpt of the above:
Aristolactam IIIa  IC50 (human neutrophils; superoxide production; with: fMLF): 0.43 µM
C=C1C[C@H](C)C(=O)N[C@@H](C)C(=O)N(C)[C@H](Cc2c(Br)[nH]c3ccccc23)C(=O)N[C@@H](c2ccc(O)cc2)CC(=O)O[C@@H](C)C[C@@H](C)C1=O  IC50 (MCF7; cytotoxicity): 3.4 µM
